{"data": "Measured values collected from several papers", "eis": "N-acetyltransferase Eis (eis, Mycobacterium tuberculosis, UniProt P9WFK7)", "E3 ubiquitin-protein ligase CBL-C": "E3 ubiquitin-protein ligase CBL-C (Homo sapiens, UniProt Q9ULV8)", "4'-phosphopantetheinyl transferase PptT": "4'-phosphopantetheinyl transferase PptT (Mycobacterium tuberculosis, UniProt O33336)", "note": "Compare with care: the assays were run in different laboratories. ± gives the spread as reported.", "UniProt P21554, sequence (whole entry, unmodified, looked up)": "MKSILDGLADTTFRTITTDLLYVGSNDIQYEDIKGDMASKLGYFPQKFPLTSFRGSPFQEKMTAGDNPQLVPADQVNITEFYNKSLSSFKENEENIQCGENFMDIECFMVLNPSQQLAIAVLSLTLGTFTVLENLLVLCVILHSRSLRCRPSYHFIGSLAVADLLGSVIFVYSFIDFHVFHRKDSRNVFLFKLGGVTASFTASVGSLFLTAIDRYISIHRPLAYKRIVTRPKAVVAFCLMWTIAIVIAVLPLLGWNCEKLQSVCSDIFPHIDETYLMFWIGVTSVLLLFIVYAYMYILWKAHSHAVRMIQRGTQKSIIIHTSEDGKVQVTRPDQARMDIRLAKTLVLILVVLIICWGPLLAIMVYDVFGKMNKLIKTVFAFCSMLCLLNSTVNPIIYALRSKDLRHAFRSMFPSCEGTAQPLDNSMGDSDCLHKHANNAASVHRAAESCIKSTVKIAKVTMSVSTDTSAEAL", "UniProt P9WFK7, sequence (whole entry, looked up)": "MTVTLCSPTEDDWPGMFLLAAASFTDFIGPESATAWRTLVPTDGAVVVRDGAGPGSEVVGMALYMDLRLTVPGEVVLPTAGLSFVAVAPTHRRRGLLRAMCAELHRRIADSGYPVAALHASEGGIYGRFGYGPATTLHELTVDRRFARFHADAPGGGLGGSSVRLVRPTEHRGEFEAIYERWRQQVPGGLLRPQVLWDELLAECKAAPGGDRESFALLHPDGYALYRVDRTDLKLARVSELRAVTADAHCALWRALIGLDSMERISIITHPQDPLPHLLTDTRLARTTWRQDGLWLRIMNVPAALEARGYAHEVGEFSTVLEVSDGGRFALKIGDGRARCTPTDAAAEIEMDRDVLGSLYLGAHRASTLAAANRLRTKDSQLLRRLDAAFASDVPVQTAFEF", "UniProt O33336, sequence (whole entry, looked up)": "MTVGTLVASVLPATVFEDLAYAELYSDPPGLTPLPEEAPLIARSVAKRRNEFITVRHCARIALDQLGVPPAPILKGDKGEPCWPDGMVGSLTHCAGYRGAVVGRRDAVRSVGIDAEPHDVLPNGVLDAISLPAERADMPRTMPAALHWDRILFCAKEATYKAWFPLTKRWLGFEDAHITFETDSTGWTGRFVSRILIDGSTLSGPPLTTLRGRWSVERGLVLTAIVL", "UniProt Q9ULV8, sequence (whole entry, looked up)": "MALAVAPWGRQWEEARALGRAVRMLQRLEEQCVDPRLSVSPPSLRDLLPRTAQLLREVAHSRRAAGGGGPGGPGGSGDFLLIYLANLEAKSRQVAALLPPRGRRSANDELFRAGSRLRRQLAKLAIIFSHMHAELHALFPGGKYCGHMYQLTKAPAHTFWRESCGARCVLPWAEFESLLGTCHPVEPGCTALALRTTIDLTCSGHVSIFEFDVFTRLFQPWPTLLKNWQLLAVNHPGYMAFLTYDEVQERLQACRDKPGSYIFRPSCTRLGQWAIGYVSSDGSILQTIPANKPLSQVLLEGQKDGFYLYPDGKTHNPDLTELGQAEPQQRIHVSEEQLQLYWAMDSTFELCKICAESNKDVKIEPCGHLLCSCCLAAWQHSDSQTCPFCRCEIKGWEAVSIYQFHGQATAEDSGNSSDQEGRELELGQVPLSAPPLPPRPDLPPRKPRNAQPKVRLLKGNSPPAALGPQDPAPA", "UniProt P03482, sequence (whole entry, looked up)": "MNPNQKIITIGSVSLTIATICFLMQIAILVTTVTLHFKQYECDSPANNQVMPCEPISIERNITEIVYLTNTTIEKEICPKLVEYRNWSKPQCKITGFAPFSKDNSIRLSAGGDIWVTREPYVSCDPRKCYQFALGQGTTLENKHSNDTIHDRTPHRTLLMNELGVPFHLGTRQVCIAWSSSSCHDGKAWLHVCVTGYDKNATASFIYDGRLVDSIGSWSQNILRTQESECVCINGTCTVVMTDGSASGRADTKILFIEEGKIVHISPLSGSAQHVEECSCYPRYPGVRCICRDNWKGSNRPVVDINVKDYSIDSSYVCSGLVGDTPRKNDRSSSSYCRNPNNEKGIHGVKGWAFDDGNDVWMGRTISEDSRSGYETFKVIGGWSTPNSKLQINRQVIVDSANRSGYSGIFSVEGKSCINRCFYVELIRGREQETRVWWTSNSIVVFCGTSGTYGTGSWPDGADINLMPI", "UniProt P01901, sequence (whole entry, looked up)": "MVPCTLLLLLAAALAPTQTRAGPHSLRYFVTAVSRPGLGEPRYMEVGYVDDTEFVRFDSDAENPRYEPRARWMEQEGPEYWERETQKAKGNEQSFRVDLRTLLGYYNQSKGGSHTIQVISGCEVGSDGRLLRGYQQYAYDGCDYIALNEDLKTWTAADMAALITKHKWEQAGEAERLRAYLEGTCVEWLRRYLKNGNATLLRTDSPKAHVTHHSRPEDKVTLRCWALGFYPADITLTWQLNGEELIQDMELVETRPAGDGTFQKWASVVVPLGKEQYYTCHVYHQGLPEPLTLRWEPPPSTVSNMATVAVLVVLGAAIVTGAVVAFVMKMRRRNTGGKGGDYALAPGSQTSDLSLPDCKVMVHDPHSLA", "UniProt P18508, sequence (whole entry, looked up)": "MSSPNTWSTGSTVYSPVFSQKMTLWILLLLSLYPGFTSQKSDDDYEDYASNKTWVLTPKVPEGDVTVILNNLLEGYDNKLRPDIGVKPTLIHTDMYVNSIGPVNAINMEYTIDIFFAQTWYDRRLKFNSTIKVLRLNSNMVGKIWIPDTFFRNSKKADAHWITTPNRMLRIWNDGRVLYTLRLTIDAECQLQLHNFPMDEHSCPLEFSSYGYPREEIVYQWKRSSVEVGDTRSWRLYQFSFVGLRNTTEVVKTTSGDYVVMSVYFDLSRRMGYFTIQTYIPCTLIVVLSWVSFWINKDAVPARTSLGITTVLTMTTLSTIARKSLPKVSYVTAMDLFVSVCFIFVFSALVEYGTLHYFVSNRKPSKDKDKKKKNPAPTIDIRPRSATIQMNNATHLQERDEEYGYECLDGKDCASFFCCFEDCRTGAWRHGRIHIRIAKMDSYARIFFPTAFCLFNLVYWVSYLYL", "UniProt P32745, sequence (whole entry, looked up)": "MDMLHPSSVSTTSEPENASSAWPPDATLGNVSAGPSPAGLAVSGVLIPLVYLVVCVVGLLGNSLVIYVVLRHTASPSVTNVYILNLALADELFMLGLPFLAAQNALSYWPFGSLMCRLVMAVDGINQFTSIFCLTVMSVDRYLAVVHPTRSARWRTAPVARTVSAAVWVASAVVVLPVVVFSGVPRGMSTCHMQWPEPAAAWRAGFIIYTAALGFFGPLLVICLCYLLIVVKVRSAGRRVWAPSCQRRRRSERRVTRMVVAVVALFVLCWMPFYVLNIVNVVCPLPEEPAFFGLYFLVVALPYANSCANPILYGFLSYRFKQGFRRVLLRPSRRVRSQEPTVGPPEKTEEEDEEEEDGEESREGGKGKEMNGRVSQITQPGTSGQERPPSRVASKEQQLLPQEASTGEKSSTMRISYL", "UniProt P41595, sequence (whole entry, looked up)": "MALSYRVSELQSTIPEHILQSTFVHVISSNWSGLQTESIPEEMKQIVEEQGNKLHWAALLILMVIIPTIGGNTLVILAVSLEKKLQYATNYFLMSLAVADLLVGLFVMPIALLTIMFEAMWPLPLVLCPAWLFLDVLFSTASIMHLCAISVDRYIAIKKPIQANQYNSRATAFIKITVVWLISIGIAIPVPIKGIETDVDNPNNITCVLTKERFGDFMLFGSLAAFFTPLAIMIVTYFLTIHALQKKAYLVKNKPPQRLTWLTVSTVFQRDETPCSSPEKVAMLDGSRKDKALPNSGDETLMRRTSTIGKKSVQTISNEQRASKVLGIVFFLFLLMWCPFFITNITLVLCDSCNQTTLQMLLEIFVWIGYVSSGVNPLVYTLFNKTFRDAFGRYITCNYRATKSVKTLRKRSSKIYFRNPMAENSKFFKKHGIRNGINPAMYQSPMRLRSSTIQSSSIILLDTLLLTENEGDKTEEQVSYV", "UniProt P19969, sequence (whole entry, looked up)": "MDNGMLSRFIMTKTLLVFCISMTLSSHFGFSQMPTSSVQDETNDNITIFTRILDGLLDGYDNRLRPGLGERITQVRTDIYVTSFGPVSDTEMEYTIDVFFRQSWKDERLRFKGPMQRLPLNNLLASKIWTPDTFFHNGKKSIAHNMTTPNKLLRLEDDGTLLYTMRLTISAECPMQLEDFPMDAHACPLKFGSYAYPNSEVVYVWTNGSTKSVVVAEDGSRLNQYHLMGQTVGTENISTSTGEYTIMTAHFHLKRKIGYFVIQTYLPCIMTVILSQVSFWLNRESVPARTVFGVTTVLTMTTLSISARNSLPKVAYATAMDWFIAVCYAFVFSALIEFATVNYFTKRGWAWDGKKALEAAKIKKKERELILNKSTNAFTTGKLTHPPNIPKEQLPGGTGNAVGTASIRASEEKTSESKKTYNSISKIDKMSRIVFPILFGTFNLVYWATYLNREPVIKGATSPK", "UniProt O60656, sequence (whole entry, looked up)": "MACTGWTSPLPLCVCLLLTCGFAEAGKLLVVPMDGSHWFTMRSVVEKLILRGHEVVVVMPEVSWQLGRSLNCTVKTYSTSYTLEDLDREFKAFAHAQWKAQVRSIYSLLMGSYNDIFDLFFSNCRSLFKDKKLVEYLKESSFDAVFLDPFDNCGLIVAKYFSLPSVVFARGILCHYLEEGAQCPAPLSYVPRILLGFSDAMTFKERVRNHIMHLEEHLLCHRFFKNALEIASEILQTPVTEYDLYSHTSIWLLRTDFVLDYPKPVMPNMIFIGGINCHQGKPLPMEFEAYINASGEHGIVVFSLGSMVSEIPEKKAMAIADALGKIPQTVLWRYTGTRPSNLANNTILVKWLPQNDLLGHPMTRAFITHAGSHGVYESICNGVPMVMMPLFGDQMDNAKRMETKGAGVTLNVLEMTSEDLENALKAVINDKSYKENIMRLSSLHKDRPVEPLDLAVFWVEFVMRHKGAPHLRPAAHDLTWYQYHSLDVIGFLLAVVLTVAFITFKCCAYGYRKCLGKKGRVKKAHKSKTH", "UniProt P9WPA5, sequence (whole entry, looked up)": "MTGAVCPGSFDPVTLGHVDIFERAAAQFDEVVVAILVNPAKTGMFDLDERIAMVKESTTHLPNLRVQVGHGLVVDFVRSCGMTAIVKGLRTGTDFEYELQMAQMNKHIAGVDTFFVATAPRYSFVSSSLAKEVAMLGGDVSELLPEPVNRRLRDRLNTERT"}
{"Compound": "CCN(CC)CCNC(=O)CSc1nc(N)c2c3c(sc2n1)CCCC3", "target": "eis", "test": "inhibitor", "measurement": "IC50", "result": "0.25 ± 0.02 µM"}
{"Compound": "O=C1CC(=O)N(c2ccccc2)c2cc(Cl)ccc2N1", "target": "Gabrg2/Gabra5, with β2 subunit (Rattus norvegicus, UniProt P18508+P19969)", "test": "GABA current potentiation, positive allosteric modulator, whole-cell patch clamp", "system": "HEK293", "conditions": "with: GABA at EC10", "measurement": "EC50", "result": "0.58 ± 0.18 µM"}
{"Compound": "O=S(=O)(O)CCOCC1CSSCC(COCCS(=O)(=O)O)SS1 (centres unmarked)", "target": "DNA-binding response regulator MtrA, C-terminal domain (mtrA, Mycobacterium tuberculosis, UniProt P9WGM7)", "test": "binding, LSPR", "measurement": "Kd", "result": "8.5 ± 0.8 µM"}
{"Compound": "CN(C)CCNC(=O)CSc1nc(N)c2c3c(sc2n1)CC(c1ccccc1)CC3 (centres unmarked)", "target": "eis", "test": "inhibitor", "measurement": "IC50", "result": "3 ± 0.6 µM"}
{"Compound": "CC(=O)OC/C=C/C1=CC2=C(CO1)C(=O)[C@](C)(O)[C@H](OC(=O)c1c(C)cc(O)cc1O)C2", "target": "Neuraminidase (NA, Influenza A virus, UniProt P03482)", "test": "inhibitor", "system": "influenza A virus H3N2", "measurement": "Ki", "result": "42 µM"}
{"Compound": "CCCCCc1cc(O)c2c(c1)OC(C)(C)C1CCC(C)=CC21 (single isomer, unassigned; (-))", "target": "CYP2C19 (Homo sapiens, UniProt P33261)", "test": "enzyme activity, inhibitor", "system": "microsomes from HEK293 cells", "conditions": "pH 7.4, with: omeprazole", "measurement": "IC50", "result": "3.6 ± 0.7 µM"}
{"Compound": "O=C(O)c1cn(Cc2ccccc2F)c2ccccc12", "target": "E3 ubiquitin-protein ligase CBL-C", "test": "binding, NMR", "measurement": "Kd", "result": "610 µM"}
{"Compound": "CC(C)(C)C1CCc2c(sc3nc(SCCN4CCCCC4)nc(N)c23)C1 (centres unmarked)", "target": "eis", "test": "inhibitor", "measurement": "IC50", "result": "16 ± 2 µM"}
{"Compound": "CCOC(=O)CC[C@H](NC(=O)c1ccc(N(C)Cc2ccc3[nH]c(C)nc(=O)c3c2)s1)C(=O)OCC", "target": "4'-phosphopantetheinyl transferase PptT", "test": "enzyme activity, inhibitor, fluorescence polarization", "conditions": "enzyme 100 nM", "measurement": "IC50", "result": "7.5 µM"}
{"Compound": "CC(C)(C)C1CCc2c(sc3nc(SCC(=O)NCCN4CCOCC4)nc(N)c23)C1 (centres unmarked)", "target": "eis", "test": "inhibitor", "measurement": "IC50", "result": "> 200 µM"}
{"Compound": "CSCC[C@H](NC(=O)[C@@H]1CSSC[C@H](NC(=O)[C@H](CCCCN)NC(=O)[C@H](Cc2ccc(O)cc2)NC(=O)CNC(=O)[C@@H](N)CC(C(=O)O)C(=O)O)C(=O)N[C@@H](C(C)C)C(=O)N[C@H](Cc2c[nH]c3ccccc23)C(=O)N[C@@H](CCCCN)C(=O)N[C@@H]([C@@H](C)O)C(=O)N1)C(=O)N1C[C@H](O)C[C@H]1C(=O)N[C@@H](C)C(=O)O", "target": "SSTR3 (Homo sapiens, UniProt P32745)", "test": "β-arrestin recruitment, agonist", "measurement": "EC50", "result": "> 300 µM"}
{"Compound": "CC[C@H](C)[C@H](NC(=O)[C@@H](NC(=O)[C@@H](N)CO)[C@@H](C)CC)C(=O)N[C@@H](CC(N)=O)C(=O)N[C@@H](Cc1ccccc1)C(=O)N[C@@H](CCC(=O)O)C(=O)N[C@@H](CCCCN)C(=O)N[C@@H](CC(C)C)C(=O)O", "target": "H-2 class I histocompatibility antigen, K-B alpha chain, 25 (H2-K1, Mus musculus, UniProt P01901)", "conditions": "23 °C", "measurement": "Kd", "result": "0.0045 µM"}
{"Compound": "CCCCCn1cc(C(=O)c2ccc3c(c2)CC(C)(C)C3)c2ccccc21", "target": "CNR1 (Homo sapiens, UniProt P21554, I267L/L193I/L359V)", "test": "Gαi1 engagement, agonist, BRET", "measurement": "EC50", "result": "0.282 µM"}
{"Compound": "Cc1nc2ccc(CN(C)c3ccc(C(=O)N[C@H](CCC(=O)O)C(=O)O)s3)cc2c(=O)[nH]1", "target": "4'-phosphopantetheinyl transferase PptT", "test": "enzyme activity, inhibitor, FP", "measurement": "IC50", "result": "0.073 µM"}
{"Compound": "CCCCCn1cc(C(=O)c2cccc3ccccc23)c2ccccc21", "target": "CNR1 (Homo sapiens, UniProt P21554, L193I)", "test": "G protein activation, agonist, BRET", "measurement": "EC50", "result": "0.0132 µM"}
{"Compound": "CCC1CCc2c(sc3nc(SCC(=O)NCCN(CC)CC)nc(N)c23)C1 (centres unmarked)", "target": "eis", "test": "inhibitor", "measurement": "IC50", "result": "1.1 ± 0.2 µM"}
{"Compound": "Cc1nc(=O)c2cc(CN(C)c3ccc(C(=O)NCCCC(=O)O)s3)ccc2[nH]1", "target": "4'-phosphopantetheinyl transferase PptT", "test": "enzyme activity, inhibitor, fluorescence polarization", "conditions": "enzyme 100 nM", "measurement": "IC50", "result": "0.1 µM"}
{"Compound": "CCCCCn1cc(C(=O)c2cccc3c2CC(C)(C)C3)c2ccccc21", "target": "CNR1 (Homo sapiens, UniProt P21554, L359V)", "test": "G protein activation, agonist, BRET", "measurement": "EC50", "result": "0.0646 µM"}
{"Compound": "CC(=O)Oc1cccc2[nH]cc(CC[N+](C)(C)C)c12", "target": "HTR2B (Homo sapiens, UniProt P41595)", "test": "ligand displacement, radioligand", "conditions": "cell membranes", "measurement": "Ki", "result": "> 10 µM"}
{"Compound": "Nc1nc(SCCN2CCCCC2)nc2sc3c(c12)CCC3", "target": "eis", "test": "inhibitor", "measurement": "IC50", "result": "1.9 ± 0.2 µM"}
{"Compound": "Cc1nc(=O)c2cc(CN(C)c3ccc(C(=O)N[C@H](CCC(=O)O)c4nnn[nH]4)s3)ccc2[nH]1", "target": "4'-phosphopantetheinyl transferase PptT", "test": "enzyme activity, inhibitor, fluorescence polarization", "conditions": "enzyme 100 nM", "measurement": "IC50", "result": "0.04 µM"}
{"Compound": "CCCCCc1cc(O)c2c(c1)OC(C)(C)C1CCC(C)=CC21 (single isomer, unassigned; (-))", "target": "UGT1A9 (Homo sapiens, UniProt O60656)", "test": "inhibitor", "system": "HEK293 overexpressing UGT1A9, recombinant UGT1A9 microsomes", "conditions": "pH 7.4, with: acetaminophen glucuronidation", "measurement": "IC50", "result": "0.49 ± 0.15 µM"}
{"Compound": "COC(=O)[C@H](CCCNC(=O)OC(C)(C)C)NC(=O)c1ccc(NCc2ccc3nc(N)nc(N)c3c2Cl)cc1", "target": "4'-phosphopantetheinyl transferase PptT", "test": "enzyme activity, inhibitor, fluorescence polarization", "conditions": "enzyme 100 nM", "measurement": "IC50", "result": "> 25 µM"}
{"Compound": "CC1CCc2c(sc3nc(SCCCN4CCCCC4)nc(N)c23)C1 (centres unmarked)", "target": "eis", "test": "inhibitor", "measurement": "IC50", "result": "0.61 ± 0.08 µM"}
{"Compound": "C#CCN(Cc1ccc2nc(N)nc(N)c2c1)c1ccc(C(=O)N[C@@H](CCC(=O)OCC)C(=O)OCC)cc1", "target": "4'-phosphopantetheinyl transferase PptT", "test": "enzyme activity, inhibitor, fluorescence polarization", "conditions": "enzyme 100 nM", "measurement": "IC50", "result": "> 25 µM"}
{"Compound": "Nc1nc(SCC(=O)NCCN2CCOCC2)nc2sc3c(c12)CCC3", "target": "eis", "test": "inhibitor", "measurement": "IC50", "result": "17 ± 1 µM"}
{"Compound": "Cc1nc(=O)c2cc(CN(C)c3ccc(C(=O)NCCCc4nn[nH]n4)s3)ccc2[nH]1", "target": "4'-phosphopantetheinyl transferase PptT", "test": "enzyme activity, inhibitor, fluorescence polarization", "conditions": "enzyme 100 nM", "measurement": "IC50", "result": "1.01 µM"}
{"Compound": "O=C(O)c1cnn(-c2ccccc2)c1OCCCCc1c[nH]c2ccccc12", "target": "Phosphopantetheine adenylyltransferase (coaD, Mycobacterium tuberculosis, UniProt P9WPA5)", "test": "ITC direct titration", "system": "5% DMSO", "conditions": "pH 8.0, 25 °C", "measurement": "Kd", "result": "27 ± 4 µM"}
{"Compound": "COc1ccc2c(c1)c(C(=O)O)c(C)n2Cc1ccccc1", "target": "E3 ubiquitin-protein ligase CBL-C", "test": "binding, NMR", "measurement": "Kd", "result": "600 µM"}
{"Compound": "CSCC[C@@H]1NC(=O)[C@H](CCCNC(=N)N)NC(=O)[C@H](Cc2ccc(O)cc2)NC(=O)[C@@H](NC(=O)[C@H](CCCNC(=N)N)NC(=O)[C@H](CCCCN)NC(=O)[C@H](CC(=O)O)NC(=O)[C@H](C)N)CSSC[C@@H](C(=O)N[C@@H](CCCNC(=N)N)C(=O)N[C@@H](Cc2ccc(O)cc2)C(=O)NCC(=O)O)NC(=O)CNC(=O)[C@H](CCCCN)NC(=O)[C@H](CCCCN)NC(=O)[C@@H]2CSSC[C@H](NC1=O)C(=O)N[C@@H](CCC(N)=O)C(=O)N[C@@H](CCCNC(=N)N)C(=O)N[C@@H](Cc1ccc(O)cc1)C(=O)N[C@@H](Cc1c[nH]cn1)C(=O)N[C@@H](CCC(N)=O)C(=O)N[C@@H](CCCNC(=N)N)C(=O)N[C@@H](CCCNC(=N)N)C(=O)N[C@@H](CCC(N)=O)C(=O)N[C@@H](CCCNC(=N)N)C(=O)N[C@@H](CCCNC(=N)N)C(=O)N[C@@H](CCC(N)=O)C(=O)N2", "target": "Potassium voltage-gated channel subfamily A member 6 (Rattus norvegicus, UniProt P17659)", "measurement": "EC50", "result": "0.01 µM"}
{"Compound": "CC(C)(C)OC(=O)NCCC[C@H](NC(=O)c1ccc(NCc2ccc3nc(N)nc(N)c3c2Cl)cc1)C(=O)O", "target": "folA (Mycobacterium tuberculosis, UniProt P9WNX1)", "test": "enzyme activity, inhibitor", "measurement": "IC50", "result": "0.0231 µM"}
{"Compound": "CC[C@H](C)[C@H](NC(=O)[C@@H]1CCCN1C(=O)[C@H](C)NC(=O)CNC(=O)[C@@H]1CCCN1C(=O)[C@H](CCC(=O)O)NC(=O)CN)C(=O)N[C@@H](CC(=O)O)C(=O)N[C@@H](Cc1ccc(O)cc1)C(=O)N[C@@H](CC(=O)O)C(=O)N[C@@H](CCC(=O)O)C(=O)N[C@@H](Cc1ccc(O)cc1)C(=O)NCC(=O)N[C@@H](CC(=O)O)C(=O)N[C@@H](CO)C(=O)N[C@@H](CO)C(=O)N[C@@H](CCC(=O)O)C(=O)N[C@@H](CCC(=O)O)C(=O)N[C@H](C(=O)NCC(=O)NCC(=O)N[C@@H](C)C(=O)N[C@@H](CCC(=O)O)C(=O)N[C@H](C(=O)N[C@@H](C)C(=O)N[C@@H](CCC(N)=O)C(=O)N1CCC[C@H]1C(=O)N[C@@H](CCCCN)C(=O)N[C@@H](CC(C)C)C(=O)N[C@@H](Cc1ccc(O)cc1)C(=O)N[C@@H](CCC(N)=O)C(=O)N[C@@H](CCCNC(=N)N)C(=O)NCC(=O)N[C@@H](CCC(=O)O)C(=O)NCC(=O)NCC(=O)N[C@@H](CC(N)=O)C(=O)NCC(=O)N[C@@H](CCSC)C(=O)N[C@@H](CCC(=O)O)C(=O)N1CCC[C@H]1C(=O)N[C@H](C(=O)N1CCC[C@H]1C(=O)N[C@@H](CCC(=O)O)C(=O)N[C@@H](CC(=O)O)C(=O)N[C@@H](Cc1ccc(O)cc1)C(=O)N[C@@H](CC(C)C)C(=O)N[C@@H](CCC(N)=O)C(=O)O)[C@@H](C)CC)C(C)C)C(C)C", "target": "Prothrombin (F2, Homo sapiens, UniProt P00734)", "test": "enzyme activity, inhibitor, absorbance", "conditions": "pH 8", "measurement": "Ki", "result": "1e-06 µM"}
{"note": "Repeated from above:"}
{"Compound": "O=S(=O)(O)CCOCC1CSSCC(COCCS(=O)(=O)O)SS1 (centres unmarked)", "target": "DNA-binding response regulator MtrA, C-terminal domain (mtrA, Mycobacterium tuberculosis, UniProt P9WGM7)", "test": "binding, LSPR", "measurement": "Kd", "result": "8.5 ± 0.8 µM"}
{"Compound": "CCN(CC)CCNC(=O)CSc1nc(N)c2c3c(sc2n1)CCCC3", "target": "eis", "test": "inhibitor", "measurement": "IC50", "result": "0.25 ± 0.02 µM"}
